Results pooled from the literature.
A part holds a random share of what one study measured. Substitutions count along the parent as printed.

Series 1 — method: aptamer microarray, sandwich; form: DNA with 2'F-ANA; matrix: in vitro; concentration: 200 nM; with: Cy3 exosite-II aptamer, 400 nM; reading: higher = stronger binding; oligonucleotide: GGTTGGTGTGGTTGG
Target: Prothrombin, mature alpha-thrombin (F2, Homo sapiens, UniProt P00734)
Notes: whole 15-mer aptamer, many near background
For `2'F-ANA at 2 4 8 9 11 14 15`, “mean fluorescence intensity” read 107 a.u.
Under “mean fluorescence intensity”, `2'F-ANA at 2 4 8 9 11 12 13 15` is recorded as 313 a.u.
`2'F-ANA at 1 3 4 6 7 9 10 11 12`: “mean fluorescence intensity” 84.3 a.u.
Under “mean fluorescence intensity”, `2'F-ANA at 8 10 13 14` is recorded as 116 a.u.
Under “mean fluorescence intensity”, `2'F-ANA at 3 5 9 10 11 13 15` is recorded as 54.2 a.u.
`2'F-ANA at 1 4 8 9 10 13`: “mean fluorescence intensity” 48.4 a.u.
Under “mean fluorescence intensity”, `2'F-ANA at 1 2 3 8 9 10 11 12 13 15` is recorded as 85.8 a.u.
`2'F-ANA at 4 7 9 13`: “mean fluorescence intensity” 175 a.u.
For `2'F-ANA at 1 3 7 12`, “mean fluorescence intensity” read 553 a.u.
For `2'F-ANA at 2 4 5 6 7 9 10 11 12 14`, “mean fluorescence intensity” read 79.9 a.u.
For `2'F-ANA at 3 4 5 6 12 14 15`, “mean fluorescence intensity” read 114 a.u.
Under “mean fluorescence intensity”, `2'F-ANA at 1 3 5 7 8 9 10 15` is recorded as 104 a.u.
`2'F-ANA at 2 3 4 5 7 8 9 11 15`: “mean fluorescence intensity” 129 a.u.
`2'F-ANA at 5 6 9 14 15` — result for “mean fluorescence intensity”: 101 a.u.
`2'F-ANA at 1 2 3 5 13 14 15`: “mean fluorescence intensity” 45.2 a.u.
`2'F-ANA at 2 3 5 13 14` — result for “mean fluorescence intensity”: 49.2 a.u.
For `2'F-ANA at 5 10 15`, “mean fluorescence intensity” read 60.9 a.u.
`2'F-ANA at 1 3 9 10 12 13`: “mean fluorescence intensity” 99.4 a.u.
For `2'F-ANA at 4 5 7 8 10 11 14 15`, “mean fluorescence intensity” read 45.8 a.u.
For `2'F-ANA at 1 2 4 5 6 9 11 14 15`, “mean fluorescence intensity” read 65.6 a.u.
`2'F-ANA at 2 3 4 5 6 8 9 10 11 13 14 15`: “mean fluorescence intensity” 55.2 a.u.
`2'F-ANA at 1 3 5 7 8 10 12 14 15` — result for “mean fluorescence intensity”: 49.1 a.u.
`2'F-ANA at 1 2 7 9 11 12 14` — result for “mean fluorescence intensity”: 70.6 a.u.
Under “mean fluorescence intensity”, `2'F-ANA at 1 2 6 8 11 12 15` is recorded as 270 a.u.
Under “mean fluorescence intensity”, `2'F-ANA at 1 2 4 5 9 10 11` is recorded as 46.5 a.u.

Series 2 — method: DHFR PCA, deep sequencing; matrix: yeast; with: (+)-ABA 0.11 µM; relative to: wild-type fitted maximum; reading: higher = stronger binding
Target: ABI1, truncated, D143A, DHFR fusion (Arabidopsis thaliana)
Notes: methotrexate growth selection, single substitutions
Starting sequence: PYL1, truncated, DHFR fusion (Arabidopsis thaliana); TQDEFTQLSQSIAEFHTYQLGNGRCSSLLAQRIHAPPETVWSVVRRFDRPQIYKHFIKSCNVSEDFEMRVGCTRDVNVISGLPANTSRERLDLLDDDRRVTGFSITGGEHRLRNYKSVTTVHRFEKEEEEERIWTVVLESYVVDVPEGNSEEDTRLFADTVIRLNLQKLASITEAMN; partner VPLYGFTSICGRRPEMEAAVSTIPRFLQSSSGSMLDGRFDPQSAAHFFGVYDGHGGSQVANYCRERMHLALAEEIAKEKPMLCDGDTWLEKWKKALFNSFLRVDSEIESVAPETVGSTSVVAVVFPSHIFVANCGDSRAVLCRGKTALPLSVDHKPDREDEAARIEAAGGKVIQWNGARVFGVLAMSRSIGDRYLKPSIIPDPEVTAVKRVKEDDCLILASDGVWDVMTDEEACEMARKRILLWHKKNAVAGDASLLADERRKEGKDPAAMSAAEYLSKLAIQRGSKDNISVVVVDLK
`R113E`: “relative binding score” 4.98%.
Under “relative binding score”, `V78Y` is recorded as 91.1%.
Under “relative binding score”, `Y115A` is recorded as -1.74%.
For `E89N`, “relative binding score” read 0.00576%.
For `A170N`, “relative binding score” read 0.97%.
`D95N`: “relative binding score” 3.4%.
For `R111D`, “relative binding score” read 5.16%.
`G21Q`: “relative binding score” 36.5%.
`N149V`: “relative binding score” 57.2%.
`S80T` — result for “relative binding score”: 41.2%.
Under “relative binding score”, `I33H` is recorded as 5.38%.
For `I12G`, “relative binding score” read -3.78%.
For `L138T`, “relative binding score” read -3.08%.
`F66A` — result for “relative binding score”: 10.3%.
Under “relative binding score”, `T17G` is recorded as -2.37%.
For `R88V`, “relative binding score” read 42.6%.

Series 3 — method: protein-binding microarray; form: double-stranded DNA, one strand shown; matrix: in vitro; concentration: 250 nM; notes: 60-bp whole probe; with: salmon DNA 0.4 mg/ml; relative to: random background probes; reading: higher = stronger binding; shared flanks, not repeated: GCCTAGCAC … GTCTTGATTCGCTTGACGCTGCTG
Target: Interferon regulatory factor 5, full length, phosphomimetic (IRF5, Homo sapiens, UniProt Q13568-2, residues 1-514, K96S/S451D/S453D/S456D/S462D)
With `TTAGGTTTCCTACTGCTTTCGTGCTAG` the log fluorescence was 1.57 z-score.
`TCAACATTGCACAATCTTACTGTGCTA` gave a log fluorescence of 0.444 z-score.
With `TTAAGTATCGGGACTGGGTTAGTGCTA` the log fluorescence was 3.09 z-score.
With `CTGGGTATTTTTCTAAACCAGTGCTAG` the log fluorescence was 0.0927 z-score.
The log fluorescence of `GACGGTTTCGGTTCCGTGACGTGCTAG` is reported as 8.56 z-score.
`TTAGGTTTCGACCATCGGTTAGTGCTA` gave a log fluorescence of 7 z-score.
With `TTAGGTTTCGGGTTTCGGTTTGTGCTA` the log fluorescence was 9.87 z-score.
`TTAGGTCTCGGTCTCGGATAGTGCTAG` has a log fluorescence of 0.701 z-score.
`CACGGTTTCGGGTTTCGGGACGTGCTA` gave a log fluorescence of 7.46 z-score.
The log fluorescence of `GAAAAATCTGGAACTAACAGGTGCTAG` is reported as 0.475 z-score.
The log fluorescence of `GACGGTCTGCTTCTCCTGACGTGCTAG` is reported as -0.124 z-score.
With `TTAGGTCTCGGGTTTCGGTTAGTGCTA` the log fluorescence was 7.11 z-score.
`TTAGGTTTCGGAATCGGTTAGTGCTAG` gave a log fluorescence of 7.49 z-score.
`TTAGGTCTCGGACTGGGGTAGTGCTAG` gave a log fluorescence of -0.356 z-score.
The log fluorescence of `TTAGGTATGGACTTTCGGTTAGTGCTA` is reported as 9.31 z-score.
The log fluorescence of `GCGATCCTCTCACCTCAGCCTGTGCTA` is reported as -0.0633 z-score.
The log fluorescence of `GATGGTTCCCTTTTCCTGACGTGCTAG` is reported as 0.387 z-score.
With `GACGCACTGGGTCTCGGGACGTGCTAG` the log fluorescence was -0.178 z-score.
The log fluorescence of `TTAGTACTGGGGTTTCGGTTAGTGCTA` is reported as 6.87 z-score.
For `TGAGATTTCGGGTTTCGATTAGTGCTA`, the log fluorescence was 8.08 z-score.
`ATTCTTTGCTCATTTTTCAGGGTGCTA` has a log fluorescence of 0.962 z-score.
With `CACGGTCTCGGTATCGGGACGTGCTAG` the log fluorescence was 0.947 z-score.
The log fluorescence of `GACAGTATCGGTATCGGGACGTGCTAG` is reported as 8.59 z-score.
`TTAGGTTTCCTACTGCTTTAGTGCTAG` gave a log fluorescence of 0.458 z-score.
With `GACGGTATCGGGTTGCGGGACGTGCTA` the log fluorescence was 2.63 z-score.

Series 4 — target: CCNA2, cyclin fold, Cln2 fusion (human); method: yeast growth competition, sequencing; matrix: yeast; notes: strong parent motif; relative to: not given; reading: higher = stronger binding
Starting sequence: PKN2 docking peptide (human); VSAVRKLDFSDTM
For `S10F`, “normalised enrichment score” read 5.08.
Under “normalised enrichment score”, `D11G` is recorded as 5.33.
Under “normalised enrichment score”, `D11F` is recorded as 4.81.
For `S10Q`, “normalised enrichment score” read 5.08.
For `F9L`, “normalised enrichment score” read 1.94.
`D11Y`: “normalised enrichment score” 5.22.
`S2N` — result for “normalised enrichment score”: 5.18.
`V4H`: “normalised enrichment score” 5.22.
Under “normalised enrichment score”, `A3L` is recorded as 3.81.
For `F9P`, “normalised enrichment score” read 0.0292.
`V4Y`: “normalised enrichment score” 5.6.
`L7E` — result for “normalised enrichment score”: -0.169.
Under “normalised enrichment score”, `S2V` is recorded as 4.55.
`S2F`: “normalised enrichment score” 4.35.

Series 5 — target: UBE2Z UBC core domain (UniProt Q9H832); method: yeast two-hybrid; matrix: yeast; notes: mostly zero background; relative to: not given; reading: higher = stronger interaction
Chain of UniProt Q9H832 (whole entry, looked up): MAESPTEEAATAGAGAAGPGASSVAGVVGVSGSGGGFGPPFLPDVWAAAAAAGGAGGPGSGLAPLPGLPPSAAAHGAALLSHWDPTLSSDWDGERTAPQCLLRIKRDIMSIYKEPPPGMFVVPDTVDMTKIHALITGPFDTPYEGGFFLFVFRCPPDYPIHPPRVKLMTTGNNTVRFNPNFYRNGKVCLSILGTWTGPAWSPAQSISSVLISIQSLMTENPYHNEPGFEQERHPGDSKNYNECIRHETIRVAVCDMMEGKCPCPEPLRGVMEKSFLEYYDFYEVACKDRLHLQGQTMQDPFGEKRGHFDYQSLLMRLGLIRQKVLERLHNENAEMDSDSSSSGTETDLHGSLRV
B1: MDM2 RING domain (UniProt Q00987); chain TQDKEESVESSLPLNAIEPCVICQGRPKNGCIVHGKTGHLMACFTCAKKLKKRNKPCPVCRQPIQMIVLTYFP
B2: RMND5B RING domain (UniProt Q96G75); chain MKCWYHSVFACPILRQQTSDSNPPIKLICGHVISRDALNKLINGGKLKCPYCPMEQNPADGK
B3: NHLRC1 RING domain (UniProt Q6VVB1); chain MREAEISLLECKVCFEKFGHRQQRRPRNLSCGHVVCLACVAALAHPRTLALECPFCRRACRGCDTSD
B4: TRIM2 RING domain (UniProt Q9C040); chain VRQIDKQFLICSICLERYKNPKVLPCLHTFCERCLQNYIPAHSLTLSCPVCRQTSILPEKGV
B5: RNF130 RING domain (UniProt Q86XS8); chain DKETDPDFDHCAVCIESYKQNDVVRILPCKHVFHKSCVDPWLSEHCTCPMCKLNILKALGIV
For `B1 (MDM2 RING domain)`, “lacZ reporter activity” read 7470.
`EIKDYKARLTCPCCNMRKKDAVLTKCFHVFCFECVKTRYDTRQRKCPKCNAAFGANDFHR (RNF20 RING domain (UniProt Q5VTR2))` — result for “lacZ reporter activity”: 0.
For `B2 (RMND5B RING domain)`, “lacZ reporter activity” read 0.
Under “lacZ reporter activity”, `B3 (NHLRC1 RING domain)` is recorded as 0.
For `GSEEEEIPFRCFICRQAFQNPVVTKCRHYFCESCALEHFRATPRCYICDQPTGGIFNPA (RNF113B RING domain (UniProt Q8IZP6))`, “lacZ reporter activity” read 7100.
Under “lacZ reporter activity”, `B4 (TRIM2 RING domain)` is recorded as 0.
Under “lacZ reporter activity”, `KITELNPHLMCALCGGYFIDATTIVECLHSFCKTCIVRYLETNKYCPMCDVQVHKTRPLL (PCGF2 RING domain (UniProt P35227))` is recorded as 0.
`VPADASPDSKCPICLDRFDNVSYLDRCLHKFCFRCVQEWSKNKAECPLCKQPFDSIFHSV (TOPORS RING domain (UniProt Q9NS56))` — result for “lacZ reporter activity”: 2150.
Under “lacZ reporter activity”, `B5 (RNF130 RING domain)` is recorded as 14600.

Series 6 — method: protein binding microarray; form: double-stranded DNA, one strand shown; matrix: in vitro; concentration: not given; relative to: not given; reading: higher = stronger binding
Target: Histone acetyltransferase KAT6A, winged helix 1, GST fusion (KAT6A, Homo sapiens, UniProt Q92794, residues 1-85)
Notes: 8-mer, flanks averaged, mean of 2 arrays, mostly near background
Target sequence (chain): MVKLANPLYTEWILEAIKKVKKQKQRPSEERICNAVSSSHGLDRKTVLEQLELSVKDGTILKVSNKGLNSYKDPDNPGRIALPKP
`CCCATGTA` gave an E-score of 0.0219.
With `CATGAGGG` the E-score was -0.102.
For `AAAGGTGC`, the E-score was -0.136.
`CCGGATAC` has an E-score of 0.145.
For `CCTCAACC`, the E-score was -0.151.
For `GGCTAACC`, the E-score was 0.104.
For `GCTAGCCC`, the E-score was -0.0269.
With `TCGTGTCA` the E-score was -0.159.
With `AAAGAAGA` the E-score was -0.0498.
The E-score of `GCGTCCCA` is reported as 0.0479.
`AACACTCA` has an E-score of -0.0219.
`TCTATCCA` has an E-score of -0.166.
The E-score of `AGATGATC` is reported as -0.179.
`ATTTTCTC` has an E-score of -0.0884.
`CGGCACCC` has an E-score of 0.331.

Excerpt of the above (series 6):
With `AAAGAAGA` the E-score was -0.0498.
With `CATGAGGG` the E-score was -0.102.
For `CCTCAACC`, the E-score was -0.151.
The E-score of `GCGTCCCA` is reported as 0.0479.
`CCGGATAC` has an E-score of 0.145.
The E-score of `AGATGATC` is reported as -0.179.
`CCCATGTA` gave an E-score of 0.0219.
`ATTTTCTC` has an E-score of -0.0884.
`AACACTCA` has an E-score of -0.0219.
For `GGCTAACC`, the E-score was 0.104.
For `AAAGGTGC`, the E-score was -0.136.
